# Published values collected from several papers.
# Each line is one published result; not all experiments were run side by side. Several values in a cell are separate wells, animals, samples, runs or records.
SMILES,organism,test,test system,conditions,scale,measurement,result
Cc1ccc2c(c1)nc(NC(=O)c1cccc(C(F)(F)F)c1)n2[C@H]1CC[C@H](N)CC1,Trypanosoma brucei brucei,"growth inhibition, CellTiter-Glo",Lister 427 bloodstream form,48 h,,EC50,0.31 µM
N=C(S)N/N=C/c1ncc(C(F)(F)F)cc1Cl,Mus musculus,"gene silencing, high-content imaging",LDR reporter GFP cells,"confirmation, mean of two runs",,EC50,7.94 µM
CN(Cc1ccc(C2(C(F)(F)F)CCC2)cc1)Cc1cccc2ccccc12,Trichophyton mentagrophytes,"microbial killing, broth dilution",ATCC18748,72 h,,MFC,32000 mg/L
CC(C)(C)NCC(SS(=O)(=O)O)c1ccccc1 (centres unmarked),Schistosoma mansoni,,infected mice,"200 mg/kg single, day 42, perfusion day 56",reference: vehicle,male worm burden reduction,57%
C=CCO/N=C(\C(=O)N[C@@H]1C(=O)N(OS(=O)(=O)O)C1(C)C)c1csc(N)n1,Proteus vulgaris,agar dilution,"ATCC 29905, susceptible",,,MIC,≤ 0.03 mg/L
CC(C)n1ncc2c(C(=O)NC[C@@H](C)N)cc(C3CC3)nc21,Enterovirus D68,viral replication,"RD, US/MO/14-18947",300 nM,,plaque reduction,56.4% and 63.9%
COC(=O)c1cc(N(C)S(=O)(=O)c2ccc(OC)cc2)cc(N(C)S(=O)(=O)c2ccc(OC)cc2)c1,Leishmania infantum,intracellular amastigote growth,U-937 macrophages and HeLa,,reference: IC50 HeLa over IC50 amastigotes,selectivity index,> 1.7
C=C(NC(=O)c1csc(-c2nc3c(cc2O)-c2nc(cs2)C(=O)NC(C(C)O)C(=O)NC(=C(C)OC)c2nc(cs2)C(=O)NC2c4nc(cs4)C(=O)NC(COC(=O)c4c5c6c(cccc6n4O)COC(=O)C(OC4CC(C)(O)C(N(C)C)C(C)O4)C2OC5)c2nc-3cs2)n1)C(N)=O (centres unmarked),Streptococcus pneumoniae,broth microdilution,penicillin-resistant isolates,,,MIC50,0.0078 mg/L
Cc1cc(Cl)cc(S(C)=NC#N)c1NC(=O)c1cc(Br)nn1-c1ncccc1Cl (centres unmarked),Spodoptera litura,,Brassica oleracea field,"50 ppm, 72 h, 10% wettable powder",,larval survival,23.1%
C[C@@H]1C(=O)O[C@@H](C)/C=C/C=C\[C@@H](C)[C@@H]2C=C[C@@H]3C[C@@]4(C)O[C@H]4[C@@H](C)[C@H]3[C@@H]2C(=O)C(Cl)(Cl)C1=O,Staphylococcus aureus,,MRSA clinical isolate,resistant OXA/ERY/TET,,MIC,0.05 mg/L
CC1(C)[C@H](NC(=O)/C(=N\OCCN)c2csc(N)n2)C(=O)N1OS(=O)(=O)O,Proteus vulgaris,agar dilution,"ATCC 29905, susceptible",,,MIC,0.125 mg/L
CC(=O)O[C@@H]1[C@@H](OC(C)=O)[C@H](Sc2sc(C(=O)c3ccc(Br)cc3)c(N)c2-c2nc3ccccc3s2)OC[C@H]1OC(C)=O,human adenovirus type 7,plaque reduction,,non-toxic concentration,,viral titre reduction,30%
CCCCCOc1ccc(-c2ccc3ncnc(Nc4ccc(OCc5cccc(F)c5)c(Cl)c4)c3c2)c(F)c1F,Leishmania major,"parasite growth, resazurin",,promastigote,,EC50,> 15 µM
CC(C)(O/N=C(\C(=O)N[C@@H]1C(=O)N(OS(=O)(=O)O)C1(C)C)c1nsc(N)n1)C(=O)O,Shigella flexneri,agar dilution,"ATCC 12022, susceptible",,,MIC,32 mg/L
COCC/N=C(\S)N/N=C(\C)c1ccccc1O,Mus musculus,"gene silencing, high-content imaging",LDR reporter GFP cells,"30 h, retest, mean of two runs",,Emax,54%
O=S(=O)(c1ccc(-c2ccc3ncnc(Nc4ccc(OCc5cccc(Cl)c5)c(Cl)c4)c3c2)cc1)N1CCOCC1,Leishmania major,"parasite growth, resazurin",,promastigote,,EC50,> 15 µM
CCN(CC)CCCNC(=O)CSc1c2c(nc3cc(Cl)ccc13)CCCC2,Mus musculus,"gene silencing, high-content imaging",LDR reporter GFP cells,retest run 2,,AC50,10 µM
[2H]C([2H])(N)C([2H])([2H])NC(=O)c1cc(C2CC2)nc2c1cnn2C(C)C,Enterovirus D68,viral replication,"RD, US/MO/14-18947",1000 nM,,plaque reduction,98.8% and 99.4%
O=S(=O)(c1cccc(-c2ccc3ncnc(Nc4ccc(OCc5cccc(F)c5)c(Cl)c4)c3c2)c1)N1CCOCC1,Leishmania major,"parasite growth, resazurin",,promastigote,,EC50,> 15 µM
CC(C)n1ncc2c(C(=O)NCC(C)(C)N)cc(C3CC3)nc21,Enterovirus D68,viral replication,"RD, US/MO/14-18947",300 nM,,plaque reduction,41.2% and 43.8%
Nc1c(C(=O)c2ccc(Cl)cc2)sc(S)c1-c1nc2ccccc2s1,human adenovirus type 7,plaque reduction,,non-toxic concentration,,viral titre reduction,10%
CN(C)CCCn1c2ccc([N+](=O)[O-])cc2c(=O)n1Cc1ccccc1,Leishmania amazonensis,"parasite growth, resazurin",,promastigote,,IC50,12.8 µM
Cc1cc(-c2ccc3ncnc(Nc4ccc(OCc5cccc(F)c5)c(Cl)c4)c3c2)cnc1N1CCOCC1,Leishmania major,"parasite growth, resazurin",,promastigote,,EC50,3.6 µM
Cc1cnc(CNC(=O)c2c(=O)c3ccc(N4CCCN(C)CC4)nc3n3c2sc2ccccc23)cn1,Trypanosoma brucei,RNA-seq,Lister 427 bloodstream form,"2 x EC50, 4 h",reference: untreated,unchanged G4-containing genes,712 genes
CC(C)(C)OC(=O)N1CCN(S(=O)(=O)c2ccc(-c3ccc4ncnc(Nc5ccc(OCc6cccc(F)c6)c(Cl)c5)c4c3)cc2)CC1,Leishmania major,"parasite growth, resazurin",,promastigote,,EC50,> 15 µM
COc1cccc(/C=N/Nc2nc(Nc3ccccc3)nc(-n3nc(C)cc3C)n2)c1O,Mus musculus,"gene silencing, high-content imaging",LDR reporter GFP cells,retest run 1,,AC50,5.01 µM
Fc1cccc(COc2ccc(Nc3ncnc4ccc(-c5cccc(-n6cccn6)c5)cc34)cc2Cl)c1,Leishmania major,"parasite growth, resazurin",,promastigote,,EC50,> 15 µM
COc1nc(Nc2nc(O)c3ccccc3n2)nc2ccc(C)cc12,Mus musculus,"gene silencing, high-content imaging",LDR reporter GFP cells,"30 h, retest run 1",,Emax,34%
FC(F)(F)c1cccc(CNc2nc(NC3CCN(Cc4ccccc4)CC3)c3nc[nH]c3n2)c1,Cryptococcus neoformans,"RNA-seq, item: CNAG_03277",wild type,"48 µg/mL, 3 h",reference: untreated wild type,log2 fold change,0.589
CC1(C)[C@H](NC(=O)/C(=N\OC2(C(=O)O)CCCC2)c2csc(N)n2)C(=O)N1OS(=O)(=O)O,Proteus vulgaris,agar dilution,"ATCC 29905, susceptible",,,MIC,≤ 0.03 mg/L
C(=N\Nc1nc(-c2ccccn2)nc2ccccc12)/c1ccccc1,Mus musculus,"gene silencing, high-content imaging",LDR reporter GFP cells,"30 h, confirmation, mean of two runs",,Emax,97%
CC1(C)C(NC(=O)C(=NOCC(=O)N2CC3CCCC3C2C(=O)O)c2csc(N)n2)C(=O)N1OS(=O)(=O)O (centres unmarked),Shigella flexneri,agar dilution,"ATCC 12022, susceptible",,,MIC,2 mg/L
Cc1ccc(C(C)C)c(OCc2ccc(C(=O)N/N=C/c3cccc(O)c3O)cc2)c1,Mus musculus,"gene silencing, high-content imaging",LDR reporter GFP cells,retest run 2,,AC50,1.26 µM
CS(=O)(=O)c1ccc(-c2ccc3ncnc(Nc4ccc(OCc5cccc(F)c5)c(Cl)c4)c3c2)cc1,Leishmania major,"parasite growth, resazurin",,promastigote,,EC50,1.6 µM
O=C(N/N=C/c1ccccn1)c1cc(-c2ccc(Cl)cc2)nc2ccccc12,Mus musculus,"gene silencing, high-content imaging",LDR reporter GFP cells,"30 h, retest, mean of two runs",,Emax,90%
Cc1c(CN(C)C(=O)/C=C/c2cnc3c(c2)CC(N)C(=O)N3)oc2ccccc12 (centres unmarked),Escherichia coli,broth microdilution,AR-0559,,,MIC,8 mg/L
O=S(=O)(c1ccc(-c2ccc3ncnc(Nc4ccc(OCc5cccc(Br)c5)c(Cl)c4)c3c2)cc1)N1CCOCC1,Leishmania major,"parasite growth, resazurin",,promastigote,,EC50,> 15 µM
CC(=O)OC[C@H]1O[C@@H](Sc2sc(C(=O)c3ccc(C)cc3)c(N)c2-c2nc3ccccc3s2)[C@H](OC(C)=O)[C@@H](OC(C)=O)[C@H]1OC(C)=O,human adenovirus type 7,plaque reduction,,non-toxic concentration,,viral titre reduction,10%

# Excerpt of the above:
SMILES,organism,test,test system,conditions,scale,measurement,result
Cc1ccc2c(c1)nc(NC(=O)c1cccc(C(F)(F)F)c1)n2[C@H]1CC[C@H](N)CC1,Trypanosoma brucei brucei,"growth inhibition, CellTiter-Glo",Lister 427 bloodstream form,48 h,,EC50,0.31 µM
CC(=O)OC[C@H]1O[C@@H](Sc2sc(C(=O)c3ccc(C)cc3)c(N)c2-c2nc3ccccc3s2)[C@H](OC(C)=O)[C@@H](OC(C)=O)[C@H]1OC(C)=O,human adenovirus type 7,plaque reduction,,non-toxic concentration,,viral titre reduction,10%
Cc1c(CN(C)C(=O)/C=C/c2cnc3c(c2)CC(N)C(=O)N3)oc2ccccc12 (centres unmarked),Escherichia coli,broth microdilution,AR-0559,,,MIC,8 mg/L
